# Measurements pooled from the literature.
# Each numbered part is a random draw from the data of one study; scales do not carry over between parts.

# Study 1
# Target: Ras GTPase-activating protein-binding protein 1, RRM domain (G3BP1, Homo sapiens, UniProt Q13283)
# Chain of UniProt Q13283 (whole entry, looked up): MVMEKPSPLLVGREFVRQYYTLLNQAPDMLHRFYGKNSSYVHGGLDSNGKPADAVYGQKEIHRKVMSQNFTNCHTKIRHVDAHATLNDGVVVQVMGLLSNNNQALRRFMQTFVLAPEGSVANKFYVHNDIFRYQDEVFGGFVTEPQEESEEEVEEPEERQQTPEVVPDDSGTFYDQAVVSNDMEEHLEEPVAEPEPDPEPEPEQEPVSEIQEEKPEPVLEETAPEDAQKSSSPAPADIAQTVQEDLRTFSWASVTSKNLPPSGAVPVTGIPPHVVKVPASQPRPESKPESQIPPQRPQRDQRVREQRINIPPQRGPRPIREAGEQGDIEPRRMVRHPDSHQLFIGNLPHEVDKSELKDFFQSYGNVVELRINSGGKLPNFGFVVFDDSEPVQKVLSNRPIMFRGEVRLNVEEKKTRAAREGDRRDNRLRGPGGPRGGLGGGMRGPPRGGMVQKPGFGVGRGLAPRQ
# Technique: RNA Bind-n-Seq
# Form: RNA
# Sample: in vitro
# Tested at: 1 µM
# Notes: whole 134-nt RNA, ends assumed
# Together with: 150 mM KCl
# Relative to: input library
# Direction: higher = stronger binding
Strand,log2 enrichment
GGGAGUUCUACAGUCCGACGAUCCCUGUGCUACACAUCGUAUGUACCGAAUCGGGAAAAAAAGGAAAAAAAGGAAAAAAAGGGAAAGUAUUAUGUUACGCCGUUCGGAUCUGCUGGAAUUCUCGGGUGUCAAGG,0.0919
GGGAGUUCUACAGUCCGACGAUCAGUCCUGUGCUACACAUCGUAUGUACCGAAUCGGGUUUUUUUGGGAAAAAGGGUGGGAAAGUAUUAUGUUACGCCGUUCGGAUCUGCACUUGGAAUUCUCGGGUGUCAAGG,0.501
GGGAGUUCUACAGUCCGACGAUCCCUCAAGUCCUGUGCUACACAUCGUAUGUACCGAAUCGGGCGGGGCGGGCGGGAAAGUAUUAUGUUACGCCGUUCGGAUCUGCACUUCCAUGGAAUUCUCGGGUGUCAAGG,1.03
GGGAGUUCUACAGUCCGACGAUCCUCAAGUCCUGUGCUACACAUCGUAUGUACCGAAUCGGGUGGGUGGGAAAGGGAAAGUAUUAUGUUACGCCGUUCGGAUCUGCACUUCCAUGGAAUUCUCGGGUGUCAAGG,0.811
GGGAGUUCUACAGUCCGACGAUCAAGUCCUGUGCUACACAUCGUAUGUACCGAAUCAAACCCAAAUUUAAACCCCCAAAAAAGUAUUAUGUUACGCCGUUCGGAUCUGCACUUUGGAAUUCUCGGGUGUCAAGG,-0.154
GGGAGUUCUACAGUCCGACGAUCCCUCAAGUCCUGUGCUACACAUCGUAUGUACCGAAUCGGGCCGGCCGGGCCGGAAAGUAUUAUGUUACGCCGUUCGGAUCUGCACUUCCAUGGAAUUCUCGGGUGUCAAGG,-0.445
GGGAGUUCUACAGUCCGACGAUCAAGUCCUGUGCUACACAUCGUAUGUACCGAAUCGGGCCCGGGCCCGGGGCCCGGGGAAAGUAUUAUGUUACGCCGUUCGGAUCUGCACUUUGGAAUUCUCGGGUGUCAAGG,-0.925
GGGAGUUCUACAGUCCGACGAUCUGUGCUACACAUCGUAUGUACCGAAUCGGGGUUUUUGGGGUUUUUUUGGGGAAAAAAAGGGGAAAGUAUUAUGUUACGCCGUUCGGAUCUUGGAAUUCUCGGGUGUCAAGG,1.31
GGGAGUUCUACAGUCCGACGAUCGUCCUGUGCUACACAUCGUAUGUACCGAAUCGGGAAAGGGAAAAAAAGGGUUUUUGGGAAAGUAUUAUGUUACGCCGUUCGGAUCUGCACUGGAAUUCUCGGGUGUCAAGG,0.181

# Study 2
# Substance: PhoQ, residues 284 288 289 292 302 303 GLASVI
# Technique: Sort-seq
# Measured: YFP reporter
# Sample: E. coli
# Notes: PhoQ-PhoP variant library
# Together with: 10 µM Mg2+
# Relative to: high Mg2+ state
# Direction: higher = stronger signaling
target,fold induction
"PhoP, residues 12 14 15 18 19 TQCLL (Escherichia coli, UniProt P23836)",4.18
"PhoP, residues 12 14 15 18 19 VHTVL (Escherichia coli, UniProt P23836)",5.65
"PhoP, residues 12 14 15 18 19 ICWRQ (Escherichia coli, UniProt P23836)",16.8

# Study 3
# Target: RNA binding protein fox-1 homolog 2, RRM domain, GST-SBP tag (RBFOX2, Homo sapiens, UniProt O43251-10, residues 100-194)
# Technique: RNA Bind-n-Seq
# Form: RNA
# Sample: in vitro
# Tested at: 365 nM
# Notes: natural RNA segment, single round, ends assumed
# Relative to: no-protein control
# Direction: higher = stronger binding
# Construct (chain): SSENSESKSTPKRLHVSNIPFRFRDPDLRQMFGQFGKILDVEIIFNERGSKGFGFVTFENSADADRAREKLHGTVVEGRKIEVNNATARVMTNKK
Strand,RBNS enrichment (R)
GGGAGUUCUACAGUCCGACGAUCGCCAAAUACACUGUGCAUAUCUGCAAUUUAAUCUUUGAAUGUAUGUUACUGGAUUAGCUCCCUCCUCCUGUGUGAUGGUACCAUGCAUAGAGUCAAUCAAAUCCUUGUGAUGGAAUUCUCGGGUGCCAA,1.01
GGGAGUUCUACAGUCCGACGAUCAGAUGGUGGAGAUUGGCAUGCCAUUGAAACUAAGAGCUCUCAAGUCAAGGAAGCUGGGCUGGGCAGUAUCCCCCGCCUUUAGUUCUCCACUGGGGAGGAAUCCUGGACCAUGGAAUUCUCGGGUGCCAA,0.858
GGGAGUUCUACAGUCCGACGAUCGAUACUGGACUUUCUGACGCAGAUGAACAAUUAAGGGGAAAAGCUUCCCUUUUCCCUCUGUGGCAGUUACGAUUUUGACUUCAGUCCUGAGAAAAACUUCAGGUUUUGAAUGGAAUUCUCGGGUGCCAA,0.324
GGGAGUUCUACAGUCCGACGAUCUCUGCUCUUGACUCUGCCAGCCCUGAUUUUCUGGGCUGGGCUCACUGGCUCUCAAUGCCACCUUCGUUAGGAUUCAUGAAAUGAGUCCCUGUCCUUCCUGGUCAUGCUGGUGGAAUUCUCGGGUGCCAA,0.252
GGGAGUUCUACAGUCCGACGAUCGAUUAUGAGCGUUAAUGUACGAAAUGUGCAGAGCAAAUUGAGGCCAACUGUGGCAUCAAUACUGCAACUUAAACUUGACAAUCAUGGUUUGCUGGUCCUCAAACAGGCACUGGAAUUCUCGGGUGCCAA,0.323
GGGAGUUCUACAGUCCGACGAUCUUUUAAAUAGAAUACGGUUUUAAUUUUUGAUAAGCUGCUGAAUUUUAAAGAGAGUUUUUUGGGGCCACCAAAUAUUUUGGAUCAUGCAGAGAAUAUAUAUUGUACUGUAGUGGAAUUCUCGGGUGCCAA,0.529
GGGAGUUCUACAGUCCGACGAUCGCUUUGCCACCACCACCAAGCACAUCUGUGAUCCUGAAGGGCGGCCGUUAGUCAUUACUGCUGAGUCCUGGGUCACCAGCAGACACACUGGGCAUGGACCCCUCAAAGCAUGGAAUUCUCGGGUGCCAA,4.93
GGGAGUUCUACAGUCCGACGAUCGGGAAGGCCAGGCUGGACCCCGGCUCCACACCCACAUCCAGCCUGCAGGCCUCUCUGCAGUCCUCUCACCCUCCCUCAGCUCCCCUUCCUCUGCAGUCACCCUCAGCUCCUGGAAUUCUCGGGUGCCAA,0.513

# Study 4
# Target: Histone acetyltransferase KAT6A, both winged helices, GST fusion (KAT6A, Homo sapiens, UniProt Q92794, residues 1-181)
# Technique: protein binding microarray
# Form: double-stranded DNA, one strand shown
# Sample: in vitro
# Tested at: not given
# Notes: 8-mer, flanks averaged, mean of 2 arrays, mostly near background
# Relative to: not given
# Direction: higher = stronger binding
# Construct (chain): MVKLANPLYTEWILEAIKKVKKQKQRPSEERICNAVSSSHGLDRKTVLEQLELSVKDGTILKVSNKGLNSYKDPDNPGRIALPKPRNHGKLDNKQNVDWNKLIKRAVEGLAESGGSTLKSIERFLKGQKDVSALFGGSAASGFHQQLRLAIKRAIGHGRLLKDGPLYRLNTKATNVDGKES
Strand,E-score
GGGTGTAC,0.109
AATGTGAA,-0.0585
AACAAATA,-0.022
AGGCTACC,-0.131
GCCCCGTA,0.131
CGTGGTAA,-0.0383
AAATAATC,-0.00978
CGATGCAA,-0.0415
CCCGTGTA,0.143
AGGTTGAA,-0.0267
ACACAGCA,0.00535
GCATCGCC,0.216
AAAGTGCC,-0.135
CACCTGGA,-0.301
GACAGGGA,-0.108
GCTAGGAC,0.0208
AGTCATGG,-0.127
CGTAGGCA,-0.0546
ACGTTGAG,-0.0509
CACGCGAA,0.193
AATGCGGC,0.232
ATCTGTCC,-0.0382
AGATCTAA,-0.0605
CTAAGAAC,-0.0782
GCGCACCC,0.243

# Study 5
# Target: Sal-like protein 4, full length isoform B (SALL4, Homo sapiens, UniProt Q9UJQ4-2, residues 1-616)
# Technique: universal PBM
# Form: double-stranded DNA, one strand shown
# Sample: in vitro
# Tested at: not given
# Notes: 8-mer, flanks averaged, mean of replicates
# Direction: higher = stronger binding
Strand,E-score
AAGTTACT,0.131
GCGACTTA,-0.0546
TGGCGCAA,-0.0587
AATTACTG,0.156
ATACCTGA,0.192
GGTTTCCA,-0.0492
AGCGTTTG,-0.17
CATCGAGA,-0.0319
CGCGAGAA,-0.147
ATCAAGAA,0.214
GCACAGGC,-0.146
GAAAACGC,0.0227
GCTCACTA,0.0117
GATTTGCA,0.141
ACCAAGTG,-0.021
GCGGCTTA,-0.119
AAGTAGAT,0.0879
CCAGGTGC,-0.224
CCTATCGC,-0.237
CGATGATC,0.0646
ATGGCACG,-0.122
ACTCCAGA,-0.0197

# Some of these lines once more (study 4):
Strand,E-score
AGTCATGG,-0.127
AATGTGAA,-0.0585
AGGCTACC,-0.131
GCGCACCC,0.243
AGGTTGAA,-0.0267
ACGTTGAG,-0.0509
AATGCGGC,0.232
GCCCCGTA,0.131
